Measurements gathered from unrelated publications.
Protocols differ between the studies behind these lines. Numbers after ± are the reported error.

COC(=O)Nc1cc(C(=O)Nc2ccc(CN)cc2)cc2ccc(C(=N)N)cc12  solubility (aqueous buffer; pH 7.4): 46.1 µg/mL
Nc1nc2c(ncn2COCCO)c(=O)[nH]1  solubility (methanol + ethanol; 24 h, 298.2 K, mass fraction 0.6): 452 µg/mL
Cc1[nH]c(/C=C2\N=C(c3ccc[nH]3)C3=C2OCCO3)cc1Cc1ccc(Cl)cc1.Cl  solubility (potassium phosphate buffer; 1.5 h, pH 7.4, room temperature): 23.1 µM
CCCSc1ccc2nc(NC(=O)OC)[nH]c2c1  solubility (UV; DPBS; 18 h, room temperature): 2.4 ± 0.2 µM
O=c1[nH]ncc(NN=Cc2cn(-c3ccccc3)nc2-c2ccccc2)c1Cl  solubility (cytotoxicity assay conditions): ≤ 5 µM
COc1cc(OC)c2c(=O)c(OC)c(-c3ccc(OC)c(OC)c3)oc2c1  solubility (HPLC; ethanol:butylene glycol 50:50): 13570 ± 32 ppm
CC(C)(C)c1ccc(CN2CCN(C(c3ccccc3)c3ccc(Cl)cc3)CC2)cc1 (stereo not drawn)  solubility (PBS; 2 h, pH 7.4, 25 °C): 3 µM
CC(C)Nc1ccnc(Nc2cccc(-c3ccccn3)c2)n1  solubility (citrate phosphate-buffered saline; 18 h, pH 7.4, 1% DMSO): 24 ± 29.3 µM
Cc1c(N(C)C)ccc2cc(C(=O)NS(=O)(=O)c3ccccc3-c3ccccc3)oc12  solubility (PBS with 1% DMSO; 24 h, pH 6.5): 312 µg/mL
NC[C@H](NC(=O)[C@@H](Cc1c[nH]c2ccccc12)NC(=O)OCC1c2ccccc2-c2ccccc21)C(=O)N[C@@H](CCCCNC(=O)CN1CCN(CC(=O)O)CCN(CC(=O)O)CCN(CC(=O)O)CC1)C(N)=O  solubility (water): ≥ 5000 µM
NC(=O)c1cccc2c1O/C(=C\c1ccc(C(=O)O)s1)C2=O  solubility (saturation solubility; aqueous buffer; 24 h, pH 7.2, 25 °C): 30 µg/mL
COc1ccccc1NC(=O)CSc1nncn1C  solubility (aqueous buffer; pH 7.4): > 3380 µg/mL
Cc1ccc([C@@H]2COC[C@H](c3ccc(C(C)(C)C)cc3)N2)cc1  solubility (shake-flask, LC-HRMS; aqueous buffer; 16 h, pH 6.8): < 4 µM
CCC(C)n1ncn(-c2ccc(N3CCN(c4ccc(OCC5COC(Cn6cncn6)(c6ccc(Cl)cc6Cl)O5)cc4)CC3)cc2)c1=O (stereo not drawn)  solubility (FeSSIF; pH 5.0): 7 µg/mL
Cc1cc(Nc2ccnc3ccc(-c4ccc(S(=O)(=O)N5CCOCC5)cc4)cc23)sn1  solubility (thermodynamic; aqueous medium): < 1 µM
C[C@@H](O)[C@H](NC(=O)c1ccc(-c2ccc(Br)cc2)cc1)C(=O)NO  solubility (aqueous buffer; pH 7.4): < 4.21 µg/mL
Cc1cnnc(Nc2ccnc3ccc(-c4ccc(S(=O)(=O)N5CCOCC5)cc4)cc23)c1  solubility (thermodynamic; aqueous medium): 1 µM
Clc1ccc([C@@H]2COC[C@H](c3ccc(-c4ccccn4)cc3)N2)cc1  solubility (shake-flask, LC-HRMS; aqueous buffer; 16 h, pH 6.8): < 4 µM
CN(Cc1ccc(C2(C(F)(F)F)CC2)cc1)Cc1cccc2ccccc12.Cl  solubility (PBS; pH 7.4, 25 °C, 2% DMSO): 4 µM
CC[C@H]1OC(=O)[C@H](C)[C@@H](O[C@H]2C[C@@](C)(OC)[C@@H](O)[C@H](C)O2)[C@H](C)[C@@H](O[C@@H]2O[C@H](C)C[C@H](N(C)C)[C@H]2O)[C@](C)(O)C[C@@H](C)C(=O)[C@H](C)[C@@H](O)[C@]1(C)O  solubility (HBSS; 18 h, pH 7.4): 661 µM
O=C(Nc1ccc(S(=O)(=O)Nc2ncccn2)cc1)c1c(Cl)cccc1Cl  solubility (aqueous buffer; pH 7.4): 15.2 µg/mL
COc1cccc2c(NCc3ccccc3)nc(-n3c(N)nc4ccccc43)nc12  solubility (aqueous buffer; pH 7.4): 0.05 µg/mL
O=C(NCCN1CCCC1)c1cc(-c2ccc(CN3CCOCC3)cc2)nc2ccc(F)cc12  solubility (water; 4 h, pH 5.6, 37 °C): 346 ± 19 µM
O=C(Nc1ccc(OC(F)(F)F)cc1)N[C@H]1CC[C@H](Oc2ccc(C(=O)O)cc2)CC1  solubility (deionised water; 30 min, pH 6.6, 37 °C, non-sink dissolution): 0.534 ± 0.212 µg/mL
COc1cc(OC)c(NC(=O)CSc2nnc(-c3ccncc3)n2C)cc1Cl  solubility (aqueous buffer; pH 7.4): < 2.25 µg/mL
COc1cc(OC)c2c(=O)c(OC)c(-c3ccccc3)oc2c1  solubility (HPLC; ethanol:butylene glycol 100:0): 2373 ± 15 ppm
CN(Cc1ccc(C(C)(C)C)cc1)Cc1cccc2ccccc12  solubility (PBS; 2 h, pH 7.4, 25 °C, 2% DMSO): 10 µM
O=S(=O)(c1ccc(-c2ccc3nccc(Nc4cncs4)c3c2)cc1)N1CCOCC1  solubility (thermodynamic; aqueous medium): 13 µM
Cc1c(-c2cccc(C(F)(F)F)c2)sc2[nH]c(=O)n([C@H](C)c3cccc4ccccc34)c(=O)c12  solubility (shake-flask; PBS; 36 h, pH 7.4, room temperature): 37 ± 3.6 µM
COc1cccc([C@@H]2COC[C@@](C)(C3CCOCC3)N2)c1  solubility (shake-flask, LC-HRMS; aqueous buffer; 16 h, pH 6.8): > 750 µM
COc1ccc(NC(=O)c2ccco2)cc1NC(=O)c1cccnc1  solubility (aqueous buffer; pH 7.4): < 2.41 µg/mL
O=C(c1cc(Cc2n[nH]c(=O)c3ccccc23)ccc1F)N1CCN(C(=O)C2CC2)CC1  solubility (1.4% w/v Gelucire): 20 µg/mL
COc1ccc(OCC(=O)Nc2cc(-c3nn4c(C)nnc4s3)ccc2C)cc1  solubility (aqueous buffer; pH 7.4): < 2.92 µg/mL
c1cncc(-c2cccc(Nc3nccc(NC4CCC4)n3)c2)c1  solubility (citrate phosphate-buffered saline; 18 h, pH 7.4, 1% DMSO): 7.6 ± 0.4 µM
Cc1ccnc(NS(=O)(=O)c2ccc(NC(=O)c3cncc(Br)c3)cc2)n1  solubility (aqueous buffer; pH 7.4): 65.3 µg/mL
c1ccc(CSc2ncnc3nc[nH]c23)cc1  solubility (UV absorbance; culture medium; stock diluted to 0.05 mM): 50 µM
CC(=O)Nc1ccc([C@H]2COC[C@@H](c3ccc(C(F)(F)F)cc3)N2)cc1  solubility (shake-flask, LC-HRMS; aqueous buffer; 16 h, pH 6.8): < 4 µM
CCNc1ccnc(Nc2cccc(-c3cccnc3)c2)n1  solubility (citrate phosphate-buffered saline; 18 h, pH 7.4, 1% DMSO): 50.7 ± 0.7 µM
CCOC(=O)N1C[C@@H](c2ccc(Cl)cc2)N[C@H](c2ccc(C(C)(C)C)cc2)C1  solubility (shake-flask, LC-HRMS; aqueous buffer; 16 h, pH 6.8): < 4 µM
Clc1nc(SCc2ccccc2)c2[nH]cnc2n1  solubility (UV absorbance; culture medium; stock diluted to 0.40 mM): 50 µM
C[C@H]1OC[C@H](c2ccc(-c3ccccn3)cc2)N[C@@H]1c1ccc(F)cc1Cl  solubility (shake-flask, LC-HRMS; aqueous buffer; 16 h, pH 6.8): < 4 µM
Cc1[nH]c(/C=C2\N=C(c3ccc[nH]3)C=C2OCc2ccccc2)cc1Cc1ccc(Cl)cc1.Cl  solubility (potassium phosphate buffer; 1.5 h, pH 7.4, room temperature): 19.1 µM
Brc1cccc([C@@H]2COC[C@H](C3CCCCC3)N2)c1  solubility (shake-flask, LC-HRMS; aqueous buffer; 16 h, pH 6.8): < 4 µM
COc1cc(OC)c2c(=O)cc(-c3ccccc3)oc2c1  solubility (HPLC; ethanol:butylene glycol 0:100): 12300 ± 76 ppm
c1cncc(-c2cccc(Nc3nccc(NC4CCCC4)n3)c2)c1  solubility (citrate phosphate-buffered saline; 18 h, pH 7.4, 1% DMSO): 2 ± 0.2 µM
N=C(CCl)NCCC[C@H](NC(=O)c1ccc2ccc(O)cc2c1)C(=O)NCc1ccccc1  solubility (water): > 20000 µg/mL
CC(C)Nc1ccnc(Nc2cccc(-c3nccs3)c2)n1  solubility (citrate phosphate-buffered saline; 18 h, pH 7.4, 1% DMSO): 29.6 ± 5.1 µM
CCCS(=O)(=O)Nc1ccc(F)c(C(=O)c2cn(C(=O)OCc3cc(P(=O)(O)O)ccc3OP(=O)(O)O)c3ncc(-c4ccc(Cl)cc4)cc23)c1F  solubility (HPLC, saturated solution; HBSS; 30 s, pH 6.5): 37000 µg/mL
Cn1cncc1[C@@](N)(c1ccc(Cl)cc1)c1ccc2c(c1)c(-c1cccc(Cl)c1)cc(=O)n2C  solubility (citrate buffer; pH 4.0, 25 °C, final pH 4.06): 117 ± 5.9 µg/mL
CC(C)(C)c1ccc([C@H]2COC[C@@H](c3ccc(Cl)cc3)N2)cc1  solubility (shake-flask, LC-HRMS; aqueous buffer; 16 h, pH 6.8): < 4 µM
O=C(Nc1cc(F)c(F)c(F)c1)c1ccc(F)c(S(=O)(=O)N2CCC(O)CC2)c1  solubility (phosphate buffer; pH 7.4): 39 µg/mL

A few entries again:
CC(C)(C)c1ccc(CN2CCN(C(c3ccccc3)c3ccc(Cl)cc3)CC2)cc1 (stereo not drawn)  solubility (PBS; 2 h, pH 7.4, 25 °C): 3 µM
CC(C)Nc1ccnc(Nc2cccc(-c3ccccn3)c2)n1  solubility (citrate phosphate-buffered saline; 18 h, pH 7.4, 1% DMSO): 24 ± 29.3 µM
Cc1c(N(C)C)ccc2cc(C(=O)NS(=O)(=O)c3ccccc3-c3ccccc3)oc12  solubility (PBS with 1% DMSO; 24 h, pH 6.5): 312 µg/mL
NC[C@H](NC(=O)[C@@H](Cc1c[nH]c2ccccc12)NC(=O)OCC1c2ccccc2-c2ccccc21)C(=O)N[C@@H](CCCCNC(=O)CN1CCN(CC(=O)O)CCN(CC(=O)O)CCN(CC(=O)O)CC1)C(N)=O  solubility (water): ≥ 5000 µM
NC(=O)c1cccc2c1O/C(=C\c1ccc(C(=O)O)s1)C2=O  solubility (saturation solubility; aqueous buffer; 24 h, pH 7.2, 25 °C): 30 µg/mL
COc1ccccc1NC(=O)CSc1nncn1C  solubility (aqueous buffer; pH 7.4): > 3380 µg/mL
